Experimental data pooled from the literature.
Lines come from different studies, so protocols differ. Values joined by “and” are separate records of one study, mostly repeats; a detail may differ. Numbers after ± are the reported error.
Sequence of UniProt P10632 (whole entry, looked up): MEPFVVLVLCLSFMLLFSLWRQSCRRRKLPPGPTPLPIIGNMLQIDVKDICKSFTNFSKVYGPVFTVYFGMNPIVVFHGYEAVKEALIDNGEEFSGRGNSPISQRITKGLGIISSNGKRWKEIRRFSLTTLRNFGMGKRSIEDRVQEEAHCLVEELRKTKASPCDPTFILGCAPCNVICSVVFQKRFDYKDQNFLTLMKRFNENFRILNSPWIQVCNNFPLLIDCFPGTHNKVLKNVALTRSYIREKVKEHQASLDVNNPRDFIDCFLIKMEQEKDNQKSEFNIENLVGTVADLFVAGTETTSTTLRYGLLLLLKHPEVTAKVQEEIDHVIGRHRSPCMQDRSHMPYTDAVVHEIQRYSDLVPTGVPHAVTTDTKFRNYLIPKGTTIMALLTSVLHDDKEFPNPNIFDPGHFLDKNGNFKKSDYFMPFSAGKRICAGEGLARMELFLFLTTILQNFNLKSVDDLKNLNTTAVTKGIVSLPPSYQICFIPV

Compound = CC(C)(O)c1ncc([S@](N)(=O)=NC(=O)Nc2c3c(cc4c2CCC4)CCC3)s1; test = measured: nervous system disorders; test system = healthy human volunteers; setting = oral, 100 mg once daily, 14 days, spray-dried dispersion; quantity = subjects with adverse events; result = 17%
Compound = N#C[C@@H]1CC(F)(F)CN1C(=O)CNC(=O)c1ccnc2c(NC(=O)[C@H](CCCCNC(=O)CCOCCOCCOCCOCCOCCOCCNC(=O)CN3CCN(CC(=O)[O-])CCN(CC(=O)[O-])CCN(CC(=O)[O-])CC3)NC(=O)CCCc3ccc(I)cc3)cccc12.[177Lu+3]; target or system = U-87 MG tumour model; test system = host not given, heart; setting = 48 h, tumour-bearing; quantity = tracer uptake; result = 0.24 %ID/g
Compound = C=C(NC(=O)c1csc(-c2nc3c(cc2O)-c2nc(cs2)C(=O)NC(C(C)O)C(=O)NC(=C(C)OC)c2nc(cs2)C(=O)NC2c4nc(cs4)C(=O)NC(COC(=O)c4c5c6c(cccc6n4O)COC(=O)C(OC4CC(C)(O)C(N(C)C)C(C)O4)C2OC5)c2nc-3cs2)n1)C(N)=O (centres unmarked); test system = Sprague-Dawley rat, female, plasma; setting = intravenous infusion, 18 mg/kg single dose; quantity = MRT(0-last); result = 1.84 h
Compound = CCN(CC)CC#CCNc1ccnc2cc(Cl)ccc12; target or system = Salmonella typhimurium; test = mini-Ames test; test system = TA98; setting = 500.0 µg/well, with rat liver S9; quantity = mean revertants; result = 17 revertants/well
Compound = O=C1C2CC3CC1CC(C(=O)N1CCN(c4ccc([N+](=O)[O-])c5ncccc45)CC1)(C3)C2; target or system = Salmonella typhimurium; test = Ames test; test system = TA1535; setting = 0.02 µg/well, with S9; how to read = baseline: vehicle; quantity = revertant fold increase; result = 0.8
Compound = O=C(Nc1cnccc1-c1ccc([18F])cc1)c1ccnc(NC(=O)C2CC2)c1; test = PET imaging; test system = FVB/NJ mice, both sexes, brain; setting = intravenous, 10 min post-injection, P-gp inhibited, together with: tariquidar 15 mg/kg iv, 2 h before; quantity = median SUV; result = 0.59
Compound = CNC(=O)C1CCCN(C(=O)C2CC3CCC2N3C(=O)[C@@H]2C[C@@H](O)CN2C(=O)NCc2cccc(Cl)c2F)C1 (mixture of isomers); target or system = Cytochrome P450 2C8 (CYP2C8, Homo sapiens, UniProt P10632); test = preincubation without NADPH; test system = human; setting = 5.56 µM; how to read = baseline: negative control; quantity = remaining activity; result = 69.6% and 85% and 86.3%
Compound = O=C(Nc1cnccc1-c1ccc([18F])nc1)c1ccnc(NC(=O)C2CC2)c1; test system = FVB/NJ mice (both sexes), muscle; setting = intravenous, dose not given, 120 min; quantity = SUV; result = 0.122
Compound = CN1CCCNC(=O)c2cccc(c2)C(=O)NCCCN(C)CCCNc2cccc3c2C(=O)c2cccc(c2C3=O)NCCC1; target or system = HSC-2; test = cell growth or viability, CCK-8; setting = 0.15 µM, 48 h; quantity = viability; result = 82.2%
Compound = CC(C)OCCOCc1ccc(OCC(O)CN(N=O)C(C)C)cc1 (centres unmarked); target or system = Escherichia coli; test = Ames test; test system = WP2 uvrA; setting = 5 µg/plate, 30 % hamster S9; how to read = baseline: solvent control; quantity = revertant fold increase; result = 1.1 fold
Compound = O=C1NC2(CC2)COc2ncc(F)cc2[C@H]2COCCN2c2ccn3ncc1c3n2; target or system = Salmonella typhimurium; test = Ames test; test system = TA97a; setting = 500 µg/plate, 48 h, together with: without S9; quantity = revertant colonies; result = 82 ± 14 revertants/plate

Some of these lines once more:
Compound = O=C1NC2(CC2)COc2ncc(F)cc2[C@H]2COCCN2c2ccn3ncc1c3n2; target or system = Salmonella typhimurium; test = Ames test; test system = TA97a; setting = 500 µg/plate, 48 h, together with: without S9; quantity = revertant colonies; result = 82 ± 14 revertants/plate
